Published values gathered from unrelated publications.
Numbered parts are unrelated; each lists some results of a single study.
UniProt P62344, sequence (whole entry, looked up): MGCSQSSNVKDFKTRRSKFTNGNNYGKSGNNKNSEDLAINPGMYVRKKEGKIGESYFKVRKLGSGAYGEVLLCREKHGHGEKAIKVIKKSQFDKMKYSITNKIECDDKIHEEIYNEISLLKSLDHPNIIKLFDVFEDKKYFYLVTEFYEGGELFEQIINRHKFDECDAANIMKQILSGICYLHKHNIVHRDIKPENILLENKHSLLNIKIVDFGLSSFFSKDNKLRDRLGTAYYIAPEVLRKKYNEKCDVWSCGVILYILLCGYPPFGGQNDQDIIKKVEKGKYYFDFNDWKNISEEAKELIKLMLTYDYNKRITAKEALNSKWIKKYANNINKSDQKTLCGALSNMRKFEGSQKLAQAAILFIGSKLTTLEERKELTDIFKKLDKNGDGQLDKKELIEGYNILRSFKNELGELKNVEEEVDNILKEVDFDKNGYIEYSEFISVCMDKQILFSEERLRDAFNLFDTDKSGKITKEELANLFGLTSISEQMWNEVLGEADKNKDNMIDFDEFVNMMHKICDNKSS

Block 1 — cell line: mouse MPNST tumor cells; method: high-content immunofluorescence imaging; refers to: nuclear SOX9; concentration: 10 µM; time: 12 h; notes: mean of 2 replicates; reference: DMSO control; reading: higher = more nuclear SOX9
| Compound | nuclear SOX9 intensity |
| --- | --- |
| O=C(O)C(=O)c1cn(Cc2ccccc2)c2ccc(-c3ccc(OC(F)(F)F)cc3)cc12 | 89.5 % of DMSO |
| Cc1cc2c(C(C)C)c(O)c(O)c(C=O)c2c(O)c1-c1c(C)cc2c(C(C)C)c(O)c(O)c(C=O)c2c1O | 102 % of DMSO |
| CN1CC[C@]2(c3cccc(O)c3)Cc3nc4ccccc4cc3C[C@H]2C1 | 109 % of DMSO |

Mixed results
CAMK2A: Calcium/calmodulin-dependent protein kinase type II subunit alpha (CAMK2A, Homo sapiens, UniProt Q9UQM7)
UniProt Q9UQM7, sequence (whole entry, looked up): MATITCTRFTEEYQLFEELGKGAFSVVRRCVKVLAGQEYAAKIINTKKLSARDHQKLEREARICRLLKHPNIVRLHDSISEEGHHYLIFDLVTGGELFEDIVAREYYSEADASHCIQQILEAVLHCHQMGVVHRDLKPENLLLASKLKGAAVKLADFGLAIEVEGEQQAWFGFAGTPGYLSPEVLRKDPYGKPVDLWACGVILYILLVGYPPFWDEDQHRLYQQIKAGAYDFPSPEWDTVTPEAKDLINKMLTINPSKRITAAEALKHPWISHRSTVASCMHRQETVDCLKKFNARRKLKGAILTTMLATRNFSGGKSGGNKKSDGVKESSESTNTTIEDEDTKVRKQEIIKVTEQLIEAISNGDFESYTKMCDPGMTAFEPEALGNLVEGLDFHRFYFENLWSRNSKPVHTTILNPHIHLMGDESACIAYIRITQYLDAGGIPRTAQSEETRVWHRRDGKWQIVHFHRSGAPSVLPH
| SMILES | target or system | test | system | setting | how to read | measurement | result |
| --- | --- | --- | --- | --- | --- | --- | --- |
| O=c1ccc2cc3ccoc3c(O)c2o1 | CAMK2A | enzyme activity, inhibitor |  | 10 µM |  | inhibition | 13% |
| CN[C@@H]1C[C@H]2O[C@@](C)([C@@H]1OC)n1c3ccccc3c3c4c(c5c6ccccc6n2c5c31)C(=O)NC4 | sample D normal colon organoid | CellTiter-Glo |  | 1 µM, mean of replicates | reference: DMSO | viability | 0.9% |
| CC(C)=CC1C(C(=O)OCc2cccc(Oc3ccccc3)c2)C1(C)C (stereo not drawn) | CAMK2A | enzyme activity, inhibitor |  | 10 µM |  | inhibition | -15% |
| CC(C)c1ccc(CN2CCN(CCO)CC2)cc1 |  |  | mouse, microsomes or S9 | 2 µM, 0.5 h |  | remaining compound | 73.2% |
| O=C(Nc1cccnn1)N1CC(C/C=C/c2cncc(Oc3ccc(C(F)(F)F)cn3)n2)C1 | CDPK1 (Plasmodium falciparum, UniProt P62344) | cell-free assay, competition with immobilised ligand |  | 1 µM |  | remaining binding | 99% |
| CC1=C2[C@H]3OC(=O)[C@@H](C)[C@@H]3CC[C@@]2(C)C=CC1=O | CAMK2A | enzyme activity, inhibitor |  | 10 µM |  | inhibition | -11% |
